Measured values gathered from unrelated publications.
Each line is one published result; not all experiments were run side by side. “And” joins repeats or separate records; there may be more than shown.
T1: itself; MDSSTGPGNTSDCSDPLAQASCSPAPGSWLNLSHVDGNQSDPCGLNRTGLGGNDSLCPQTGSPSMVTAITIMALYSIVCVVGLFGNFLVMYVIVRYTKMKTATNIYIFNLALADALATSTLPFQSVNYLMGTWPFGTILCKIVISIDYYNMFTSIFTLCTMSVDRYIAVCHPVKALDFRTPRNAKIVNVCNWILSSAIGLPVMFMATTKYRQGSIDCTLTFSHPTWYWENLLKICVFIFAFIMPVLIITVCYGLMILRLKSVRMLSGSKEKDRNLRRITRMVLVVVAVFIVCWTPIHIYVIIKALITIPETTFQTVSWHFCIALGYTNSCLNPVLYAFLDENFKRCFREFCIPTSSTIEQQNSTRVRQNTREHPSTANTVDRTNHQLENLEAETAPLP
B1: int K362A (Listeria innocua, UniProt Q928V6); chain MKAAIYIRVSTQEQVENYSIQAQTEKLTALCRSKDWDVYDTFIDGGYSGSNMNRPALNEMLSKLHEIDAVVVYRLDRLSRSQKDTITLIEEYFLKNNVEFVSLSETLDTSSPFGRAMIGILSVFAQLERETIRDRMVMGKIKRIEAGLPLTTAKGRTFGYDVIDTKLYINEEEAKQLRLIYDIFEEEQSITFLQKRLKKLGFKVRTYNRYNNWLTNDLYCGYVSYKDKVHVKGIHEPIISEEQFYRVQEIFSRMGKNPNMNKESASLLNNLVVCSKCGLGFVHRRKDTVSRGKKYHYRYYSCKTYKHTHELEKCGNKIWRADKLEELIIDRVNNYSFASRNIDKEDELDSLNEKLKIEHAKAKRLFDLYINGSYEVSELDSMMNDIDAQINYYEAQIEANEELKKNKKIQENLADLATVDFNSLEFREKQLYLKSLINKIYIDGEQVTIEWL
B2: Oprm1 full length with N-terminal SNAPf (Rattus norvegicus, UniProt P33535); chain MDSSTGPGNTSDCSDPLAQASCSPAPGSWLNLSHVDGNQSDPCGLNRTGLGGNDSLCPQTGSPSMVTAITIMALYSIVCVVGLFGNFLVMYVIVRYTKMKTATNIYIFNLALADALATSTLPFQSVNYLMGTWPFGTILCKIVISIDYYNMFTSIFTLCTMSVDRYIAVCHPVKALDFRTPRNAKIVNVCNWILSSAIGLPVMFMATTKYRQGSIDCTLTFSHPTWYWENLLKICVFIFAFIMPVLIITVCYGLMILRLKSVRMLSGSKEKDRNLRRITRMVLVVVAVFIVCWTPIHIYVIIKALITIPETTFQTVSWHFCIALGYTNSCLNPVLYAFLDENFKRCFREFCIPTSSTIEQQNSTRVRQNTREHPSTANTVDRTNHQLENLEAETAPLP

`GCN4 leucine zipper` has a β-galactosidase activity of 4820 Miller units and 5130 Miller units (itself; two-hybrid; late).
For `DUT nuclear isoform (Homo sapiens)`, the dimer formation was 4 fold (itself; non-reducing SDS-PAGE western blot; total cell extracts; 18 h, not purified, added: hydrogen peroxide 0.1-0.5 mM; relative to: untreated cells, higher = more dimer).
`MAPT R2R3 peptide, acetyl-lysine, second lysine` — result for “t1/2max of aggregation”: 76.3 h (itself; self-assembly into fibrils, ThT fluorescence, negative-stain TEM; 500 µM, pH 7.4, acetylated peptide, TFA-disaggregated).
`B1 (int K362A)` has an integration fraction of 0.12 fraction (itself; attB integration by attP; 250 nM, 20 min, saturating integrase).
`dpo1 D231A/D318A (Saccharolobus solfataricus)` gave a Kd of 542 nM (itself; DNA synthesis rate; 60 °C, cooperative fit, kinetic).
`LL-37 mature (Homo sapiens)` — result for “molecule per partner”: 5 and 4 (itself; native MS; nanodiscs).
The oligomer fraction of `Clip1 (Rattus norvegicus, UniProt Q9JK25)` is reported as 20.5% (itself; scanning force microscopy; end-to-end association).
`MAPT R1R3 peptide, acetyl-lysine, second and third`: “t1/2max of aggregation” 47.5 h (itself; self-assembly into fibrils, ThT fluorescence, negative-stain TEM; 500 µM, pH 7.4, acetylated peptide, TFA-disaggregated).
With `GCN4 leucine zipper (Saccharomyces cerevisiae)` the β-galactosidase activity was 3540 Miller units (itself; bacterial two-hybrid; 48 h, 30 °C; higher = stronger interaction).
`BCL10 R58Q, Alexa488 label (Homo sapiens)`: “critical concentration of polymerization” 0.25 µmol/L (itself; confocal fluorescence microscopy; R58Q, full length, MBP removed).
The homodimer lifetime of `B2` is reported as 122 ms (T1, itself; single-molecule colocalisation imaging; CHO-K1; 37 °C, no agonist, in cells).
Under “cluster abundance increase”, `FUS RNA-binding domain` is recorded as greater than 10 fold (itself; nanoparticle tracking analysis; 1 µM; relative to: PLD of FUS, higher = greater increase).

Some of these lines once more:
`BCL10 R58Q, Alexa488 label (Homo sapiens)`: “critical concentration of polymerization” 0.25 µmol/L (itself; confocal fluorescence microscopy; R58Q, full length, MBP removed).
